Experimental data pooled from the literature.
Protocols differ between the studies behind these lines.
Organism: Pseudomonas aeruginosa

CN[C@H](CC(C)C)C(=O)N[C@H]1C(=O)N[C@@H](CC(N)=O)C(=O)N[C@H]2C(=O)N[C@H]3C(=O)N[C@H](C(=O)N[C@H](C(=O)O)c4cc(O)cc(O)c4-c4cc3ccc4O)[C@H](O)c3ccc(c(Cl)c3)Oc3cc2cc(c3O[C@@H]2O[C@H](CO)[C@@H](O)[C@H](O)[C@H]2O[C@H]2C[C@](C)(NCc3ccc(OCc4cn(CCCCC(=O)N[C@H](C(=O)N[C@@H](CCN)C(=O)N[C@H]5CCNC(=O)[C@H]([C@@H](C)O)NC(=O)[C@H](CCN)NC(=O)[C@H](CCN)NC(=O)[C@H](CC(C)C)NC(=O)[C@@H](CC(C)C)NC(=O)[C@H](CCN)NC5=O)[C@@H](C)O)nn4)c(OC)c3)[C@H](O)[C@H](C)O2)Oc2ccc(cc2Cl)[C@H]1O gave an MIC of 6 µM (broth microdilution; ATCC 35218, cation-adjusted Mueller-Hinton broth).
With CC[C@H](C)[C@H](NC(=O)[C@H](Cc1c[nH]c2ccccc12)NC(=O)[C@H](CCCNC(=N)N)NC(=O)[C@@H]1CCCN1C(=O)[C@H](CCCNC(=N)N)NC(=O)[C@@H]1CCCN1C(=O)[C@H](CC(C)C)NC(=O)[C@H](Cc1ccc(O)cc1)NC(=O)[C@@H]1CCCN1C(=O)[C@@H]1CCCN1C(=O)[C@H](CCCCN)NC(=O)[C@H](CC(=O)O)NC(=O)[C@@H](N)C(C)C)C(=O)N[C@@H](CCCNC(=N)N)C(=O)N[C@H](CCCNC(=N)N)C(=O)N[C@H](C(=O)N[C@@H](Cc1ccc(O)cc1)C(=O)N[C@@H](CC(N)=O)C(=O)N[C@H](CCCNC(=N)N)C(N)=O)[C@@H](C)CC the MIC was 128 µg/mL (broth microdilution; DSM 1117; 18 h, 37 °C, 25% MHB2).
With CC(C)C[C@@H]1NC(=O)[C@H](CCCCN)NC(=O)CNC(=O)[C@H]2CCCN2C(=O)[C@H](CCCCN)NC(=O)[C@H](CC(C)C)NC(=O)[C@H](CCCCN)NC(=O)[C@H](CC(C)C)NC(=O)[C@H](CCCCN)NC(=O)C(N)CCC=CCCC(C(N)=O)NC(=O)[C@H](CCCCN)NC(=O)[C@H](CC(C)C)NC(=O)[C@H](CCCCN)NC1=O (stereo partly shown) the MIC was 8 µM (broth microdilution; ATCC 9027, Mueller-Hinton broth; 18 h, 37 °C).
CC(=O)N[C@@H](CC(C)C)C(=O)N[C@H]1CSSC[C@@H](C(=O)N2CCC[C@H]2C(N)=O)NC(=O)[C@H]([C@@H](C)O)NC(=O)[C@H](C(C)C)NC(=O)[C@H]([C@@H](C)O)NC(=O)CNC(=O)[C@H](CC(C)C)NC(=O)[C@H](Cc2ccccc2)NC(=O)[C@H](Cc2ccc(O)cc2)NC(=O)[C@H](CC(C)C)NC(=O)[C@H](CCCCN)NC(=O)[C@H](Cc2ccccc2)NC(=O)[C@H](CCCNC(=N)N)NC(=O)[C@H](CCCCN)NC(=O)[C@H](CC(C)C)NC(=O)[C@H](CCCCN)NC(=O)[C@@H]2CCCN2C(=O)[C@H](CCCCN)NC(=O)[C@H](C(C)C)NC(=O)[C@H](CC(N)=O)NC(=O)[C@H](Cc2ccc(O)cc2)NC(=O)[C@H]([C@@H](C)O)NC1=O has an MIC of 2.5 to 5 µM (broth dilution; CGMCC strain; 24 h).
For CC[C@H](C)[C@H](NC(=O)[C@H](CCCCN)NC(=O)[C@H](Cc1c[nH]c2ccccc12)NC(=O)[C@H](Cc1c[nH]c2ccccc12)NC(=O)[C@H](CCCCN)NC(=O)[C@H](CCCCN)NC(=O)[C@H](CCCCN)NC(=O)[C@H](Cc1c[nH]c2ccccc12)NC(=O)[C@H](CCCCN)NC(=O)[C@H](CCCCN)NC(=O)[C@H](Cc1c[nH]c2ccccc12)NC(=O)[C@H](CCCCN)NC(=O)[C@H](CCCCN)NC(=O)[C@@H](NC(=O)[C@@H](NC(=O)[C@H](CCCCN)NC(=O)[C@@H](N)CCCNC(=N)N)[C@@H](C)CC)[C@@H](C)CC)C(=O)N[C@@H](Cc1c[nH]c2ccccc12)C(=O)N[C@@H](Cc1c[nH]c2ccccc12)C(=O)N[C@@H](CCCCN)C(N)=O, the MIC was 1.25 µg/mL (broth microdilution; 10145).
CC[C@H](C)[C@H](NC(=O)[C@@H](CCCNC(=N)N)NC(=O)[C@H](CCCNC(=N)N)NC(=O)[C@H](CO)NC(=O)[C@H](Cc1c[nH]c2ccccc12)NC(=O)[C@H](CCCNC(=N)N)NC(=O)[C@@H]1CCCN1C(=O)[C@H](CCCNC(=N)N)NC(=O)[C@@H]1CCCN1C(=O)[C@H](CC(C)C)NC(=O)[C@H](Cc1ccc(O)cc1)NC(=O)[C@@H]1CCCN1C(=O)[C@@H]1CCCN1C(=O)[C@H](CCCCN)NC(=O)[C@H](CC(=O)O)NC(=O)[C@@H](N)C(C)C)C(=O)N[C@@H](Cc1ccc(O)cc1)C(=O)N[C@@H](CC(N)=O)C(=O)N[C@H](CCCNC(=N)N)C(N)=O gave an MIC of 128 µg/mL (broth microdilution; DSM 1117; 18 h, 37 °C, 25% MHB2).
With CC[C@H](C)[C@H](NC(=O)CNC(=O)[C@@H](NC(=O)CNC(=O)[C@@H](NC(=O)CNC(=O)[C@@H](NC(=O)[C@@H](NC(=O)[C@H](CCC(N)=O)NC(=O)[C@H](CCC(=O)O)NC(=O)[C@@H](NC(=O)[C@H](CC(C)C)NC(=O)[C@H](CCCNC(=N)N)NC(=O)[C@H](Cc1ccccc1)NC(=O)[C@@H](NC(=O)[C@H](CC(N)=O)NC(=O)[C@H](CCCCN)NC(=O)CNC(=O)[C@H](CCSC)NC(=O)[C@H](CCCCN)NC(=O)CNC(=O)[C@H](CC(C)C)NC(=O)[C@H](CCCCN)NC(=O)[C@H](CCCCN)NC(=O)CNC(=O)[C@H](Cc1ccccc1)NC(=O)[C@H](CCCCN)NC(=O)[C@H](CCCCN)NC(=O)[C@H](CC(C)C)NC(=O)[C@H](Cc1c[nH]c2ccccc12)NC(=O)CN)C(C)C)C(C)C)C(C)C)C(C)C)C(C)C)C(C)C)C(=O)N[C@@H](CC(N)=O)C(=O)N[C@@H](C)C(=O)N[C@@H](CC(C)C)C(=O)N[C@@H](CO)C(=O)O the MIC was 8.79 µg/mL (broth microdilution; ATCC 27853, Mueller-Hinton broth; 16 to 20 h, 37 °C).
For CN[C@H](CC(C)C)C(=O)N[C@H]1C(=O)N[C@@H](CC(N)=O)C(=O)N[C@H]2C(=O)N[C@H]3C(=O)N[C@H](C(=O)N[C@H](C(=O)O)c4cc(O)cc(O)c4-c4cc3ccc4O)[C@H](O)c3ccc(c(Cl)c3)Oc3cc2cc(c3O[C@@H]2O[C@H](CO)[C@@H](O)[C@H](O)[C@H]2O[C@H]2C[C@](C)(NCc3ccc(OCc4cn(CC(=O)N[C@H](C(=O)N[C@@H](CCN)C(=O)N[C@H]5CCNC(=O)[C@H]([C@@H](C)O)NC(=O)[C@H](CCN)NC(=O)[C@H](CCN)NC(=O)[C@H](CC(C)C)NC(=O)[C@@H](CC(C)C)NC(=O)[C@H](CCN)NC5=O)[C@@H](C)O)nn4)c(OC)c3)[C@H](O)[C@H](C)O2)Oc2ccc(cc2Cl)[C@H]1O, the MIC was 12 µM (broth microdilution; ATCC 17978, cation-adjusted Mueller-Hinton broth).
For CC[C@H](C)[C@H](NC(=O)[C@H](CCCNC(=N)N)NC(=O)[C@H](Cc1c[nH]c2ccccc12)NC(=O)[C@H](Cc1c[nH]c2ccccc12)NC(=O)[C@H](CCCNC(=N)N)NC(=O)[C@@H](N)CCCNC(=N)N)C(=O)N[C@@H](Cc1c[nH]c2ccccc12)C(N)=O, the MIC was 8 µg/mL (27023).
CCCCCCCC(=O)N[C@@H](CCN)C(=O)N[C@H](C(=O)N[C@@H](CCN)C(=O)N[C@H]1CCNC(=O)[C@H]([C@@H](C)O)NC(=O)[C@H](CCN)NC(=O)[C@H](CCN)NC(=O)[C@H](CCC(C)C)NC(=O)[C@@H](Cc2ccccc2)NC(=O)[C@H](CCN)NC1=O)[C@@H](C)O has an MIC of 0.25 to 0.5 µg/mL (ATCC 27853).
CN[C@H](CC(C)C)C(=O)N[C@H]1C(=O)N[C@@H](CC(N)=O)C(=O)N[C@H]2C(=O)N[C@H]3C(=O)N[C@H](C(=O)N[C@H](C(=O)NCc4cn(CC(=O)N[C@H](C(=O)N[C@@H](CCN)C(=O)N[C@H]5CCNC(=O)[C@H]([C@@H](C)O)NC(=O)[C@H](CCN)NC(=O)[C@H](CCN)NC(=O)[C@H](CC(C)C)NC(=O)[C@@H](CC(C)C)NC(=O)[C@H](CCN)NC5=O)[C@@H](C)O)nn4)c4cc(O)cc(O)c4-c4cc3ccc4O)[C@H](O)c3ccc(c(Cl)c3)Oc3cc2cc(c3O[C@@H]2O[C@H](CO)[C@@H](O)[C@H](O)[C@H]2O[C@H]2C[C@](C)(N)[C@H](O)[C@H](C)O2)Oc2ccc(cc2Cl)[C@H]1O has an MIC of 6 µM (broth microdilution; ATCC 25922, cation-adjusted Mueller-Hinton broth).
The MIC of CCn1ccn(CC)c1=[Se] is reported as over 40 µM (broth microdilution; carbapenem-resistant BAA-2108; 24 h).
The MIC of CC(C)C[C@@H]1NC(=O)[C@@H](CC(C)C)NC(=O)[C@H](CCN)NC(=O)[C@@H](NC(=O)[C@H](CCN)NC(=O)[C@@H](NC(=O)CN=[N+]=[N-])[C@@H](C)O)CCNC(=O)[C@H]([C@@H](C)O)NC(=O)[C@H](CCN)NC(=O)[C@H](CCN)NC1=O is reported as 63 µM (broth microdilution; ATCC 25922, cation-adjusted Mueller-Hinton broth).
For CCCCCCCC(=O)N[C@@H](CCN)C(=O)N[C@H](C(=O)N[C@@H](CCN)C(=O)N[C@H]1CCNC(=O)[C@H]([C@@H](C)O)NC(=O)[C@H](CCN)NC(=O)[C@H](CCN)NC(=O)[C@H](Cc2ccc(F)cc2)NC(=O)[C@@H](CC(C)C)NC(=O)[C@H](CCN)NC1=O)[C@@H](C)O, the MIC was 0.125 to 0.25 µg/mL (broth microdilution; PAO1, colistin-susceptible).
For CC(C)C[C@@H]1NC(=O)[C@@H](CC(C)C)NC(=O)[C@H](CCN)NC(=O)[C@@H](NC(=O)[C@H](CCN)NC(=O)[C@@H](NC(=O)CCOCCOCCOCCN=[N+]=[N-])[C@@H](C)O)CCNC(=O)[C@H]([C@@H](C)O)NC(=O)[C@H](CCN)NC(=O)[C@H](CCN)NC1=O, the MIC was 28 µM (broth microdilution; ATCC 35218, cation-adjusted Mueller-Hinton broth).
C=C1NC(=O)C2CSCC3NC(=O)C(CSC(C)C(NC(=S)C(Cc4cnc[nH]4)NC(=O)c4csc(C(C)NC(C)=O)n4)C(=O)N[C@H](CC(C)C(=O)NC(=O)CC(C(=O)O)NC(=O)C(C)NC3=O)C(=O)N2)NC(=O)[C@@H]2CCCN2C(=O)[C@@H](CC(C)C)NC1=O (stereo partly shown) gave an MIC of over 32 µg/mL (bacterial growth; ATCC 27853).

A few entries again:
For CN[C@H](CC(C)C)C(=O)N[C@H]1C(=O)N[C@@H](CC(N)=O)C(=O)N[C@H]2C(=O)N[C@H]3C(=O)N[C@H](C(=O)N[C@H](C(=O)O)c4cc(O)cc(O)c4-c4cc3ccc4O)[C@H](O)c3ccc(c(Cl)c3)Oc3cc2cc(c3O[C@@H]2O[C@H](CO)[C@@H](O)[C@H](O)[C@H]2O[C@H]2C[C@](C)(NCc3ccc(OCc4cn(CC(=O)N[C@H](C(=O)N[C@@H](CCN)C(=O)N[C@H]5CCNC(=O)[C@H]([C@@H](C)O)NC(=O)[C@H](CCN)NC(=O)[C@H](CCN)NC(=O)[C@H](CC(C)C)NC(=O)[C@@H](CC(C)C)NC(=O)[C@H](CCN)NC5=O)[C@@H](C)O)nn4)c(OC)c3)[C@H](O)[C@H](C)O2)Oc2ccc(cc2Cl)[C@H]1O, the MIC was 12 µM (broth microdilution; ATCC 17978, cation-adjusted Mueller-Hinton broth).
For CC[C@H](C)[C@H](NC(=O)[C@H](CCCNC(=N)N)NC(=O)[C@H](Cc1c[nH]c2ccccc12)NC(=O)[C@H](Cc1c[nH]c2ccccc12)NC(=O)[C@H](CCCNC(=N)N)NC(=O)[C@@H](N)CCCNC(=N)N)C(=O)N[C@@H](Cc1c[nH]c2ccccc12)C(N)=O, the MIC was 8 µg/mL (27023).
